Published values pooled from the literature.
Each numbered part is a random draw from the data of one study; scales do not carry over between parts.

Study 1
Target: RING finger protein unkempt homolog, zinc fingers 1-6, GST-SBP tag (UNK, Homo sapiens, UniProt Q9C0B0, residues 30-357)
UniProt Q9C0B0, sequence (30-357, looked up): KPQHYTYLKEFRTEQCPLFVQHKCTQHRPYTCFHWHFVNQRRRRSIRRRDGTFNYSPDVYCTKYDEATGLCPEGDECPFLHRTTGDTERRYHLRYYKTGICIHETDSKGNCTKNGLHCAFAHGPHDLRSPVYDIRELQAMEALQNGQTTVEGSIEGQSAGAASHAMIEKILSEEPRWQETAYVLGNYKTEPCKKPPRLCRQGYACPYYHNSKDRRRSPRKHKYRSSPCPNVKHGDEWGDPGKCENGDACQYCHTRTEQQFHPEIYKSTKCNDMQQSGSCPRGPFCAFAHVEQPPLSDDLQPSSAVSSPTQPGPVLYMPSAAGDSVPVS
Technique: RNA Bind-n-Seq
Molecule type: RNA
Matrix: in vitro
Tested at: not given
Notes: RNA with constant flanks, human-mouse chimeric sites, ends assumed
Reference: input RNA pool
Direction: higher = stronger binding
All sequences stand within: GGGAGUUCUACAGUCCGACGAUC … CAACAGAGGAUUGAGCAUCA
| Sequence | bound/input enrichment [ratio] |
| --- | --- |
| CGCUGGCCCAAGCUGAUGGACUCUGAUGGCCUCCAUCUCUCAGGCACGUGUGCCUUCUCUUAGUCCCUUCUGGGUUGAUGUUAUGAAUCUCAGUACUGUGGUUUGAAAGCAGUUAUGUUG | 0.731 |
| UCGGAUGAGGUGCUGGGUCACUUUCCGUAUCCAGAUCCUUCACAGUGGACAGAUGAAGAACUGGGAAUCCCUCCUGAUGACGAGGACUGACACUGUAAACUCUCUGGACGAGUAGGAGCA | 0.651 |
| GGCCUGGGACCGUCCUGGGCUAGUACAAAUAGCGGCAGUGGAGGCUCGAGAGGAAAGUUGUUAGUGGGAGGCAGUGGAGAGGUCGUCCAUGUACGGUCCUUUACUCGAUAGAUGUGUUCU | 0.506 |
| GCCACCAGAUCCCAGAAACAUGACCCUUGCUGCCUACAAGGAGAAGAUGAAGGAACUCCCGCUGGUGUCCUUGUUCUGCUCCUGCUUCCUGGCCGAUCCCCUGAAUAAGUCGUCCUACAA | 0.218 |
| UAUAUCACCAAUGUCCUACAAAAUCCUGACUUGGCUCUGAGAAUGGCUGUGCGGAACAACUUAGCCGGUGCUGAAGAACUCUUUGCCCGGAAAUUUAAUGCUCUCUUUGCCCAGGGAAAC | 0.356 |
| GGGACUGAUUCAUUCCAAGGACAGGCCACCCCAUUUGAUGCCUGGACUGAUGACAGUAUGGAAGGGCCUAGUCAAAAUGUUGAAGCUGAGUCAAUUCAGGAUGCCAUGCAUAUGGCAGAG | 0.297 |
| GGAAGUACAAUGAUGGAGAUUGAUGGUGACAAAGGCAAGCAGGGCGGGCCCACCUACUACAUAGACACUAAUGCUCUCCGCGUGCCCAGGGAGAAUAUGGAGGCCAUCUCACCACUCAAG | 1.13 |
| UAAAUUAGGGCUGCCGUCCGUUCUCACUCCCUGGGCUGCGGAAAGCCAGAAGAUUUUAUCUAGCUUAUACAAGGCUGCUGGUGUUCCCUCUUUUUUUCCCUCUCUCUGUUUUUGGCUGCA | 0.823 |

Study 2
Target: Sal-like protein 4, full length isoform A (SALL4, Homo sapiens, UniProt Q9UJQ4, residues 1-1053)
UniProt Q9UJQ4, sequence (whole entry, looked up): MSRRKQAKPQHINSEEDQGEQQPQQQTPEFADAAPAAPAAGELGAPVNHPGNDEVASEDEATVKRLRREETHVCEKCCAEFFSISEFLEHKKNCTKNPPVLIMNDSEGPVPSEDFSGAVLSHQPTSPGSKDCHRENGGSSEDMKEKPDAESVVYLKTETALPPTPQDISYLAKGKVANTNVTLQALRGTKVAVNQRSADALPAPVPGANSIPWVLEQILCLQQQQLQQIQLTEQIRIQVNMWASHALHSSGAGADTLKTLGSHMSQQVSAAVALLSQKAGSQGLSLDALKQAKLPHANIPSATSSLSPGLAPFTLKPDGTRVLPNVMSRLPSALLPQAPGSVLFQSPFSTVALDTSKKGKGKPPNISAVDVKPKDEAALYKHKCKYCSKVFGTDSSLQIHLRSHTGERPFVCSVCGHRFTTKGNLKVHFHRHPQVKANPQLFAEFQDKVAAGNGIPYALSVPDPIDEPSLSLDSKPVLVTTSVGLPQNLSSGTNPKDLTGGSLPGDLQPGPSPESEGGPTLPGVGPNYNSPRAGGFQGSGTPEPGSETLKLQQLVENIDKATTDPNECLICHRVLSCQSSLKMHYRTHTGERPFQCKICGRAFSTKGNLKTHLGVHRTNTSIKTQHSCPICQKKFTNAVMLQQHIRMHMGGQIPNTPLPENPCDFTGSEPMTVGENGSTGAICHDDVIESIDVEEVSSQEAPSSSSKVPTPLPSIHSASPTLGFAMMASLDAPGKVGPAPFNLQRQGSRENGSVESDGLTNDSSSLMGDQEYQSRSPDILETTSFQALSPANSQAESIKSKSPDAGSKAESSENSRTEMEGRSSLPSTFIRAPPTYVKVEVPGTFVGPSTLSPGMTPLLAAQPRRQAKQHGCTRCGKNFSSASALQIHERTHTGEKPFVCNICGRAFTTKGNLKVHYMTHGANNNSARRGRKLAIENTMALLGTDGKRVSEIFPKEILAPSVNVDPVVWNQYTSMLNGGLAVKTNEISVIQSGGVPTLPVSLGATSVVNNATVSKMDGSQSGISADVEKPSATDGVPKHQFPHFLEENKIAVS
Technique: universal PBM
Molecule type: double-stranded DNA, one strand shown
Matrix: in vitro
Tested at: 600 nM
Notes: 8-mer, flanks averaged, mean of replicates
Direction: higher = stronger binding
| Sequence | E-score |
| --- | --- |
| ACGATATC | 0.156 |
| CATTGCGA | 0.109 |
| CACCAGGC | -0.351 |
| CGGCTAAG | -0.217 |
| ACCCGGCA | -0.336 |
| ATAACAAA | 0.346 |
| CACGTTTC | -0.165 |
| GATCACGC | -0.164 |
| GTTAGAAA | 0.173 |
| CTTTGGGA | 0.0163 |
| TGTGGTAA | 0.121 |
| AATCAAGC | 0.0868 |
| CCTTGGAC | -0.123 |
| CGGGGGCA | -0.236 |
| AAGTAATC | 0.164 |
| CGAGGCCG | -0.341 |
| TCCTTCAA | 0.191 |
| ATCTCCTG | 0.0641 |
| ATCTAGCC | -0.158 |
| CAAGACTA | 0.149 |
| GATGTACC | 0.0493 |
| CAATGTGG | -0.000475 |
| CGTAATTA | 0.308 |
| CTACAAAG | 0.0783 |
| ATTGTCCG | 0.0574 |

Study 3
Target: RNA binding protein fox-1 homolog 2, RRM domain, GST-SBP tag (RBFOX2, Homo sapiens, UniProt O43251-10, residues 100-194)
Technique: RNA Bind-n-Seq
Molecule type: RNA
Matrix: in vitro
Tested at: 365 nM
Notes: natural RNA segment, single round, ends assumed
Reference: no-protein control
Direction: higher = stronger binding
All sequences stand within: GGGAGUUCUACAGUCCGACGAUC … UGGAAUUCUCGGGUGCCAA
Construct (chain): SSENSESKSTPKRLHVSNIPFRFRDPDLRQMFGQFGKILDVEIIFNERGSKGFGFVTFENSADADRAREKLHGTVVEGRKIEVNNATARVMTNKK
| Sequence | RBNS enrichment (R) |
| --- | --- |
| CUAUAUCUGUACAGAGUAUAUUCGGUAAGUGCACUAUUAAAUGUCUAAGGGAAGAGUCUGGCCUGCUCUCUGACUUGCACCUUCCUCGCCCUUAGAAGCAGGGAUUGCAA | 0.607 |
| CUGGCUUGGACUUUAGCGGGGAGGGAAGCCAGGGGAUUUUGAAGGGUGGACAUUAGGGUAGGGUGAGGUCAACCUAAUACUGACUUGUCAGUAUCUCCAGCUCUGAUUAC | 0.734 |
| GGUCAGCUCCACAUUCUUUGUUGACGUGACACUAACGGCCAAUAAUAUGCUUCUUAAUUAUCAAAUUAUAGUUUCCCAAUUGGGAAACUAAUUGGGGGUGGGUUACAAAA | 0.41 |
| CUGUAUACCUAGAUGAUGACUAAAUGCAAAAUCCUUGGGCUUUGGUUUUUUUCUAGUAAGGAUUUUAAAUAACUGCCGACUUCAAAAGUGUUCUUAAAACGAAAGAUAAU | 0.418 |
| GAUUCUGCUGGAUCUCAAAGAUGUGCCAAGCCAAGGAAAAAGAUACAAGAGCAGAAUAGUACUUAAAAUCCAAACUGCCGCCCAGAUGGGCUUGUUCUUCAUGCCUAACU | 0.31 |
| CAUUUCCCCCAAAACCUUAGACAUUCAUAGUAGAUUUUAAUUAGUUAGCUUUCUAACUAGUCAGAUUUCUGCCCAAAGUGCUUAGUCAAUAGUAAUUAAGAUAUAGCUUC | 0.296 |
| UGGCUUGGUUUCCAUGAUUCUUACUUUAUUAGCCUAGUUUAUCACCAAUAAUACUUGACGGAAGGCUCAGUAAUUAGUUAUGAAUAUGGAUAUCCUCAAUUCUUAAGACA | 0.481 |
| CUUUGACUCCCUGACCUCCAGAGCCAGGGUUGUGCCUUAUUGUCCCAUCUGUGGGCCUCAUUCUGCCAAAGCUGGACCAAGGCUAACCUUUCUAAGCUCCCUAACUUGGG | 0.289 |

Study 4
Target: Prothrombin, mature alpha-thrombin (F2, Homo sapiens, UniProt P00734)
Technique: aptamer microarray, sandwich
Molecule type: DNA with 2'F-ANA
Matrix: in vitro
Tested at: 200 nM
Notes: whole 15-mer aptamer, many near background
Added: Cy3 exosite-II aptamer, 400 nM
Direction: higher = stronger binding
Sequence: GGTTGGTGTGGTTGG
| Modification | mean fluorescence intensity [a.u.] |
| --- | --- |
| 2'F-ANA at 1 7 8 9 11 12 15 | 373 |
| 2'F-ANA at 2 3 4 5 6 7 8 11 12 | 159 |
| 2'F-ANA at 2 4 5 6 7 8 9 12 | 246 |
| 2'F-ANA at 1 2 5 9 12 13 | 80.7 |
| 2'F-ANA at 6 8 10 11 | 174 |
| 2'F-ANA at 2 3 4 8 11 14 | 354 |
| 2'F-ANA at 1 2 6 7 9 12 | 352 |
| 2'F-ANA at 2 6 8 9 10 11 12 14 15 | 101 |
| 2'F-ANA at 2 3 4 5 6 8 9 12 | 227 |
| 2'F-ANA at 1 4 5 6 7 9 10 11 13 14 | 46.8 |
| 2'F-ANA at 2 3 4 5 6 7 12 13 | 111 |
| 2'F-ANA at 6 7 8 9 | 565 |
| 2'F-ANA at 1 5 6 8 9 10 11 13 14 15 | 59.3 |
| 2'F-ANA at 1 4 6 7 9 10 13 14 15 | 54.4 |
| 2'F-ANA at 4 5 6 7 8 10 12 13 | 45.5 |
| 2'F-ANA at 1 3 5 7 8 9 12 14 15 | 50.4 |
| 2'F-ANA at 8 9 11 12 14 | 233 |
| 2'F-ANA at 1 5 6 7 12 15 | 103 |
| 2'F-ANA at 5 10 | 45.4 |
| 2'F-ANA at 2 4 7 8 11 12 13 14 | 139 |
| 2'F-ANA at 2 4 5 11 13 15 | 49.8 |
| 2'F-ANA at 2 3 10 13 14 15 | 283 |

Some of these lines once more (study 2):
| Sequence | E-score |
| --- | --- |
| AATCAAGC | 0.0868 |
| CCTTGGAC | -0.123 |
| CGGGGGCA | -0.236 |
| AAGTAATC | 0.164 |
| CGAGGCCG | -0.341 |
| TCCTTCAA | 0.191 |
